Published values of several laboratories.
Parts stem from different laboratories: compare values within a part only.

Set 1
Cell line: A-375
Tested at: 100 µM
Time: 36 h
Quantity: viability
NC12CC3CC(CC(C3)C1)C2: 122%
COC(=O)C1=C(C)NC(C)=C(C(=O)O[C@@H]2CCCN(Cc3ccccc3)C2)[C@@H]1c1cccc([N+](=O)[O-])c1 (racemic): 16.2%
COC(=O)Nc1nc2ccc(Sc3ccccc3)cc2[nH]1: 15.8%
CCCCOc1ccc(CC(=O)NO)cc1: 69.9%
COc1ccc(-c2cc(=O)c3c(O)c(OC)c(O)cc3o2)cc1OC: 90.9%
COc1ccnc(C[S+]([O-])c2nc3ccc(OC(F)F)cc3[nH]2)c1OC (centres unmarked): 99.8%
Cc1cn([C@H]2C=C[C@@H](CO)O2)c(=O)[nH]c1=O: 101%
CC1COc2c(N3CCN(C)CC3)c(F)cc3c(=O)c(C(=O)O)cn1c23 (centres unmarked): 107%

Set 2
Target: Receptor tyrosine-protein kinase erbB-2 (ERBB2, Homo sapiens, UniProt P04626)
Read-out: enzyme activity
Mode: inhibitor
Tested at: 0.5 µM
Relative to: control
Quantity: remaining activity
Nc1[nH]nc2nc3ccccc3nc12: 95.2%
Cc1ccc(Nc2nccc(N(C)c3ccc4c(C)n(C)nc4c3)n2)cc1S(N)(=O)=O: 103%
Cc1nc(-c2ccccc2)c(-c2ccncc2)o1: 105%
COc1ccc(OC)c2c(=S)c3ccccc3[nH]c12: 93.6%
CCOC(=O)c1c(C)[nH]c(/C=C2\C(=O)Nc3ccccc32)c1C: 101%
O=C(O)c1ccc2c3c1cccc3c(=O)n1c3ccccc3nc21: 99.7%
OCC(O)CCON=C1C(c2c(O)[nH]c3ccccc23)=Nc2ccccc21 (centres unmarked): 95.3%
O=c1c2ccccc2[nH]c(=S)n1CCN1CCC(=C(c2ccc(F)cc2)c2ccc(F)cc2)CC1: 98.8%
Nc1ccc2ncnc(NCCc3ccc(Oc4ccccc4)cc3)c2c1: 108%
O=C1NC(=O)C(c2cn(CCCn3ccnc3)c3ccccc23)=C1Nc1ccccc1: 93.6%
CNC(=O)c1cc(Oc2ccc(NC(=O)Nc3ccc(Cl)c(C(F)(F)F)c3)cc2)ccn1: 103%
Cn1sc(=O)n(Cc2ccccc2)c1=O: 106%
N#CC(C#N)=C(N)/C(C#N)=C/c1ccc(O)cc1: 90.1%
COc1ccc(C(=O)Nc2sc3c(c2C(N)=O)CCCC3)cc1OC: 93.3%

Set 3
Cell line: mouse MPNST tumor cells
Technique: high-content immunofluorescence imaging
Measured: nuclear SOX9
Tested at: 10 µM
Time: 12 h
Notes: mean of 2 replicates
Relative to: DMSO control
Reading: higher = more nuclear SOX9
Quantity: nuclear SOX9 intensity
O=C(OCCN1CCOCC1)C1(c2ccccc2)CCCCC1: 98.7 % of DMSO
COc1cc(C=Cc2ccc(OC)cc2OC)cc(OC)c1: 164 % of DMSO
C=CCNc1ncnc2ccc(Br)cc12: 116 % of DMSO
CO/N=C(\C(=O)N[C@@H]1C(=O)N2C(C(=O)O)=C(COC(N)=O)CS[C@H]12)c1ccco1: 84 % of DMSO
CC(=O)N[C@@H](CS)C(=O)O: 97.9 % of DMSO

Set 4
Target: Calcium/calmodulin-dependent protein kinase type II subunit alpha (CAMK2A, Homo sapiens, UniProt Q9UQM7)
Sequence of UniProt Q9UQM7 (whole entry, looked up): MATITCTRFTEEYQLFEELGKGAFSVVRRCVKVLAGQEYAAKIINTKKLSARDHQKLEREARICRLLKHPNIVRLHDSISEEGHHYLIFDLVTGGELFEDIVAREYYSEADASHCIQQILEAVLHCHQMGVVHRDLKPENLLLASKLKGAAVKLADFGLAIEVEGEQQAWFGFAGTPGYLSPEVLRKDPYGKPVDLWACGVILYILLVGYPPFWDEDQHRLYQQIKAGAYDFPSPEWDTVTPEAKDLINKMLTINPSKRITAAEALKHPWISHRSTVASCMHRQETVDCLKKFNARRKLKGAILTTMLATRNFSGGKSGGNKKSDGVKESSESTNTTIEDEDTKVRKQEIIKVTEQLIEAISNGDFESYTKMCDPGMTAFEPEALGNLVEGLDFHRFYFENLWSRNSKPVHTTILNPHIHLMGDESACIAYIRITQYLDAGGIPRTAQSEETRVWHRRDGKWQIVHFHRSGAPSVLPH
Read-out: enzyme activity
Mode: inhibitor
Tested at: 10 µM
Quantity: inhibition
CC(=O)O[C@@H]1CC[C@@]2(C)[C@@H](CC[C@]3(C)[C@@H]2C(=O)C=C2[C@@H]4[C@@H](C)[C@H](C)CC[C@]4(C)CC[C@]23C)[C@@]1(C)C(=O)O: 6%
Nc1ncc[nH]1: -71%
C=C(C)[C@@H]1CC[C@]2(C)[C@H](CC=C3[C@@H]4[C@@H](C)[C@H](C)CC[C@]4(C)CC[C@]32C)[C@@]1(C)CCC(=O)O: -26%
CC(C(=O)c1ccc(O)cc1O)c1ccc(O)cc1 (centres unmarked): 22%
O=C[C@H](O)[C@@H](O)[C@H](O)[C@H](O)CO[C@H]1O[C@H](CO[C@H]2O[C@H](CO)[C@H](O)[C@H](O)[C@H]2O)[C@H](O)[C@H](O)[C@H]1O: -4%

For quick reference, copied from above (set 3):
C=CCNc1ncnc2ccc(Br)cc12: 116 % of DMSO
CO/N=C(\C(=O)N[C@@H]1C(=O)N2C(C(=O)O)=C(COC(N)=O)CS[C@H]12)c1ccco1: 84 % of DMSO
CC(=O)N[C@@H](CS)C(=O)O: 97.9 % of DMSO
